Assay results gathered from unrelated publications.
Each line is one published result; not all experiments were run side by side. Several values in a cell are separate wells, animals, samples, runs or records. ± gives the spread as reported. Converted amounts (≈) assume the structure as drawn.

Structure (SMILES) | organism | assay | test system | conditions | how to read | measurement | value
CC(C)[C@H]1NC(=O)[C@H](Cc2ccccc2)NC(=O)[C@@H](C(C)C)NC(=O)[C@@H](C)NC(=O)[C@H](C)NC(=O)[C@@H](Cc2c(-c3ccc(-c4ccc5ccccc5c4)cc3)[nH]c3ccccc23)NC(=O)[C@@H](CO)NC1=O | Mycobacterium marinum | – | – | – | – | MIC90 | 41.5 µM (≈ 40 µg/mL)
CN(CCO)CCO.O=C(O)C(Cl)Cl | Solanum nigrum | herbicidal activity | – | 15 mg/mL, 21 days, pre-emergence greenhouse | – | inhibition | 0%
CN(C(=O)c1ccn2ncc(-c3ccc(C(N)=O)cc3)c2c1)c1ccc(C#N)cn1 | Cryptosporidium parvum | – | UGA1 Nluc, IFN-gamma knockout C57BL/6 mice, faeces | oral, 10 mg/kg daily, 72 h post infection, treatment days 11-17 | higher means more parasites | faecal Nluc luminescence | 97 a.u. and 299 a.u. and 14 a.u. and 78 a.u. and 104 a.u.
CN(C)c1nc(NCc2ccc(F)cc2F)c(/N=N/c2ccc(Cl)cc2)c(N(C)C)n1 | Ostrinia furnacalis | leaf dipping | – | 200 mg/L, 96 h | – | mortality | 85 ± 7.1%
CC[C@H](C)CCCCC(=O)N[C@@H](CCN)C(=O)N[C@H](C(=O)N[C@@H](CCN)C(=O)N[C@H]1CCNC(=O)[C@H]([C@@H](C)O)NC(=O)[C@H](CCN)NC(=O)[C@H](CCN)NC(=O)[C@H](CC(C)C)NC(=O)[C@@H](CC(C)C)NC(=O)[C@H](CCN)NC1=O)[C@@H](C)O | Escherichia coli | daily serial passaging | ATCC 8739 | highest sub-MIC, 38 days | reference: initial MIC | MIC fold change | 1.47
CCCCCCCCCC(=O)OCCSCCC(=O)N[C@H](CCN)C(=O)N[C@@H](CCN)C(=O)N[C@@H](CCN)C(=O)N[C@@H](CC(C)C)C(=O)N[C@H](Cc1ccccc1)C(=O)N[C@@H](CCN)C(=O)N[C@@H](CCN)C(=O)N[C@@H](CC(C)C)C(N)=O | Acinetobacter calcoaceticus | BHI agar spot plating | – | 24 h, 37 °C | – | MBC | 32 µM (≈ 37.7 µg/mL)
CC(C)[C@H]1NC(=O)[C@H](Cc2ccccc2)NC(=O)[C@@H](C(C)C)NC(=O)[C@@H](C)NC(=O)[C@H](CC(=O)O)NC(=O)[C@@H](Cc2c(-c3ccc(-c4ccc5ccccc5c4)cc3)[nH]c3ccccc23)NC(=O)[C@@H](CO)NC1=O | Mycobacterium marinum | – | – | – | – | MIC90 | > 100 µM
Cc1cc(F)ccc1-c1ccc2c(c1)c(CN(C)C)nn2C | Rhinovirus A16 | viral replication | – | concentration not given | – | cytopathic effect | no effect
CC[C@H](C)[C@H](NC(=O)[C@H](CCCNC(=N)N)NC(=O)[C@H](CO)NC(=O)[C@H](Cc1ccc(O)cc1)NC(=O)[C@@H](NC(=O)[C@@H](NC(=O)[C@H](C)NC(=O)CNC(=O)[C@H](CCCCN)NC(=O)[C@H](CCCCN)NC(=O)CCNC(=O)CCCCCNC(=O)[C@H](CCCNC(=N)N)NC(=O)CCCCCNC(=O)[C@H](CCCNC(=N)N)NC(=O)[C@H](CCCNC(=N)N)NC(=O)CCCCCNC(=O)[C@H](CCCNC(=N)N)NC(=O)[C@H](CCCNC(=N)N)NC(=O)CCCCCNC(=O)[C@H](CCCNC(=N)N)NC(=O)[C@H](CCCNC(=N)N)NC(=O)CCCCCNC(=O)[C@@H](N)CCCNC(=N)N)C(C)C)[C@@H](C)O)C(=O)N[C@@H](CO)C(=O)NCC(=O)N[C@@H](CCC(N)=O)C(=O)N[C@@H](Cc1ccc(O)cc1)C(=O)N[C@@H](CCCCN)C(=O)O | Escherichia coli | biofilm formation, crystal violet staining | ATCC 25922, Lennox broth | 24 h, 37 °C, polystyrene plate | – | MBIC50 | 12 µM
O=C(O)CN(CC(=O)O)CP(=O)(O)O | Providencia stuartii | – | NDM-1 producer | 32 µg/mL, with: meropenem | reference: meropenem alone | fold MIC reduction | 128
CN(C)c1nc(NCc2ccccc2F)c(/N=N/c2ccc(Cl)cc2)c(N(C)C)n1 | Ostrinia furnacalis | leaf dipping | – | 500 mg/L, 96 h | – | mortality | 100%
Cc1cc(Cl)cc([S+](C)[O-])c1NC(=O)c1cc(Br)nn1-c1ncccc1Cl (centres unmarked) | Spodoptera litura | leaf-dip | third instar larvae | 50 ppm, 48 h | – | mortality | 46.7%
Cc1cc(C(=O)Nc2nc3cccc(C)c3n2[C@H]2CCCCN(C(=O)/C=C/CN(C)C)C2)ccn1 | Trypanosoma brucei | propidium iodide flow cytometry | bloodstream form | concentration not given, 16 h | – | cells in G2 phase | 35.9%
CCOC(=O)C1(Cc2ccc(C(F)(F)F)cc2)Oc2cc(F)ccc2N(Cc2ccc(C(F)(F)F)cc2)C1=O (centres unmarked) | Setaria viridis | fresh weight, greenhouse postemergence | – | postemergence, 150 g ai/ha, 21 days | – | inhibition | 28 ± 1.99%
[O-][N+]1=C(c2ccsc2)C2=NCCCN2c2ccccc21 | Clostridioides difficile | microbial growth | – | – | – | MIC50 | 2 µg/mL (≈ 7.06 µM)
CC(C)[C@H]1NC(=O)[C@H](Cc2ccccc2)NC(=O)[C@@H](C(C)C)NC(=O)[C@@H](C)NC(=O)[C@H](C)NC(=O)[C@@H](Cc2c(-c3ccc(-c4ccc(-c5ccccc5)cc4)cc3)[nH]c3ccccc23)NC(=O)[C@@H](CO)NC1=O | Mycobacterium marinum | – | – | – | – | MIC90 | 40.4 µM (≈ 40 µg/mL)
COc1ccc(Cn2c3cc(=O)n(Cc4cccc(Cl)n4)c(C)c3c(=O)n2-c2ccccn2)cc1 | human respiratory syncytial virus | – | recombinant reporter virus | concentration not given, scale 0 to 100, with: cytidine 11.1 µM | – | normalized viral replication | 0
Fc1cccc(COc2ccc(Nc3ncnc4ccc(-c5cccc(N6CCSCC6)c5)cc34)cc2Cl)c1 | Trypanosoma cruzi | intracellular amastigote growth, β-galactosidase CPRG | 3T3, Tulahuen, β-galactosidase-expressing | 10 µM, 96 h | – | inhibition | 55%
CC[C@H](C)[C@@H]1NC(=O)[C@H](CO)NC(=O)[C@H](CCCCN)NC(=O)[C@@H]2CSSC[C@@H](C(=O)N[C@@H](Cc3ccc(O)cc3)C(N)=O)NC(=O)[C@H](CCCCN)NC(=O)[C@@H]3CSSC[C@H](NC(=O)[C@H](CCCNC(=N)N)NC(=O)[C@H](CC(C)C)NC(=O)[C@H](CC(=O)O)NC(=O)[C@H](CC(=O)O)NC(=O)[C@H](CCC(=O)O)NC(=O)[C@H](CC(N)=O)NC(=O)[C@H](Cc4c[nH]c5ccccc45)NC(=O)C(C)(CC)NC(=O)CNC(=O)[C@H](CC(N)=O)NC(=O)[C@@H](NC(=O)CNC(=O)[C@H](Cc4ccccc4)NC(=O)CN)CSSC[C@H](NC(=O)[C@H](Cc4ccc(O)cc4)NC(=O)CNC(=O)CNC(=O)[C@H](CCCCN)NC(=O)[C@H](Cc4ccc(O)cc4)NC(=O)[C@H]4CCCN4C(=O)[C@@H]4CCCN4C1=O)C(=O)N[C@@H](C)C(=O)N[C@@H](CCCCN)C(=O)N1CCC[C@@H]1C(=O)NCC(=O)N[C@@H](Cc1ccccc1)C(=O)N[C@@H](C(C)C)C(=O)N3)C(=O)N[C@@H](Cc1c[nH]cn1)C(=O)N[C@@H](CC(N)=O)C(=O)N[C@@H](Cc1c[nH]cn1)C(=O)N2 (some centres unmarked) | Streptococcus pneumoniae | – | BS-441 | 24 h, 37 °C, 99.9% killing | – | MBC | 0.5 µM (≈ 2.23 µg/mL)
CC[C@H](C)[C@H](NC(=O)[C@H](CC(N)=O)NC(=O)[C@H](CC(C)C)NC(=O)[C@@H](NC(=O)[C@@H](N)Cc1ccccc1)[C@@H](C)CC)C(=O)N[C@@H](CC(C)C)C(=O)N[C@@H](CC(=O)O)C(=O)N[C@@H](CCCCN)C(N)=O | Gram-negative bacteria | – | – | – | – | geometric mean MIC | 256 µM

Some of these lines once more:
Structure (SMILES) | organism | assay | test system | conditions | how to read | measurement | value
Fc1cccc(COc2ccc(Nc3ncnc4ccc(-c5cccc(N6CCSCC6)c5)cc34)cc2Cl)c1 | Trypanosoma cruzi | intracellular amastigote growth, β-galactosidase CPRG | 3T3, Tulahuen, β-galactosidase-expressing | 10 µM, 96 h | – | inhibition | 55%
